Experimental data collected from several papers.
Each line is one published result; not all experiments were run side by side. In brackets after ≈: the same amount, converted by molar mass.
Organism: Klebsiella pneumoniae

Compound = O=C/C=C/c1ccccc1; test system = MTCC 109; setting = 1000 µg/mL, 18 h; quantity = zone of inhibition; result = 7 mm
Compound = CC[C@H](C)[C@H](NC(=O)[C@H](Cc1ccc(O)cc1)NC(=O)[C@@H](NC(=O)[C@H](Cc1c[nH]c2ccccc12)NC(=O)[C@@H]1CCCN1C(=O)[C@@H](NC(=O)[C@H](C)N)[C@@H](C)CC)[C@@H](C)CC)C(=O)N[C@@H](Cc1ccc(O)cc1)C(=O)N[C@@H](CCCNC(=N)N)C(=O)N[C@@H](CC(C)C)C(=O)N[C@@H](CC(C)C)C(=O)N[C@@H](CCCNC(=N)N)C(=O)N[C@@H](CCCCN)C(=O)NCC(=O)O; test system = ATCC 700603; setting = 18 h, 37 °C; quantity = MBC; result = 15 µM (≈ 26.4 µg/mL)
Compound = CCc1c([N+](=O)[O-])oc2ccc3ccccc3c12; test = REMA; quantity = MIC90; result = 0.5 µg/mL (≈ 2.07 µM)
Compound = CC[C@H](C)[C@H](NC(=O)[C@H](C)NC(=O)[C@H](CCCCN)NC(=O)[C@H](CC(C)C)NC(=O)[C@H](C)NC(=O)[C@@H](NC(=O)[C@H](Cc1c[nH]cn1)NC(=O)[C@H](CC(C)C)NC(=O)[C@@H](NC(=O)[C@@H](NC(=O)[C@H](CCCCN)NC(=O)[C@H](C)NC(=O)[C@H](C)NC(=O)[C@H](CO)NC(=O)[C@H](CCCCN)NC(=O)[C@H](Cc1ccccc1)NC(=O)[C@@H](NC(=O)[C@H](CCCCN)NC(=O)[C@H](CC(C)C)NC(=O)[C@H](Cc1ccccc1)NC(=O)[C@H](CO)NC(=O)[C@H](CCCCN)NC(=O)[C@H](Cc1c[nH]c2ccccc12)NC(=O)[C@H](CCCCN)NC(C)=O)[C@@H](C)O)[C@@H](C)O)C(C)C)[C@@H](C)O)C(=O)N[C@@H](CO)C(=O)N[C@@H](CO)C(N)=O; test system = ATCC 1706; quantity = MBC50; result = 16 µg/mL (≈ 5.45 µM)
Compound = N#Cc1ccc2c(ccc3oc([N+](=O)[O-])cc32)c1; test = REMA; quantity = MIC90; result = 0.25 µg/mL (≈ 1.05 µM)
Compound = C[C@@H](O)[C@H]1C(=O)N2C(C(=O)O)=C(S[C@@H]3CN[C@H](C(=O)N(C)C)C3)[C@H](C)[C@H]12; test = checkerboard; test system = carbapenem-resistant; setting = concentration not given, with: anionic gold nanoparticle 8 µg/mL; how to read = baseline: MIC alone over combination; quantity = MIC fold reduction; result = 4 fold
Compound = CC[C@H](C)[C@H](NC(=O)[C@H](Cc1c[nH]c2ccccc12)NC(=O)[C@@H](NC(=O)[C@H](Cc1ccc(O)cc1)NC(=O)[C@@H]1CCCN1C(=O)[C@@H](NC(=O)[C@H](C)N)[C@@H](C)CC)[C@@H](C)CC)C(=O)N[C@@H](Cc1ccc(O)cc1)C(=O)N[C@@H](CCCNC(=N)N)C(=O)N[C@@H](CC(C)C)C(=O)N[C@@H](CC(C)C)C(=O)N[C@@H](CCCNC(=N)N)C(=O)N[C@@H](CCCCN)C(=O)NCC(N)=O; test system = ATCC 700603; setting = 18 h, 37 °C; quantity = MBC; result = > 15 µM
Compound = C[C@@H](O)[C@H]1C(=O)N2C(C(=O)O)=C(S[C@@H]3CN[C@H](C(=O)N(C)C)C3)[C@H](C)[C@H]12; test system = NDM-producing, neutropenic BALB/c mouse, thigh infection, thigh; setting = dose not given, 8 h; quantity = bacterial burden, best; result = 8.3 log10 CFU/thigh
Compound = COc1ccc2ccc3oc([N+](=O)[O-])cc3c2c1Br; test = REMA; quantity = MIC90; result = 0.016 µg/mL (≈ 0.0497 µM)
Compound = C[C@@H](O)[C@H]1C(=O)N2C(C(=O)O)=C(SCCN=CN)C[C@H]12; test = checkerboard; test system = carbapenem-resistant; setting = concentration not given, with: anionic gold nanoparticle 8 µg/mL; how to read = baseline: MIC alone over combination; quantity = MIC fold reduction; result = 16 fold
Compound = CC[C@H](C)[C@H](NC(=O)[C@H](Cc1ccccc1)NC(=O)[C@@H](NC(=O)[C@H](Cc1ccccc1)NC(=O)[C@@H]1CCCN1C(=O)[C@@H](NC(=O)[C@H](C)N)[C@@H](C)CC)[C@@H](C)CC)C(=O)N[C@@H](Cc1c[nH]c2ccccc12)C(=O)N[C@@H](CCCNC(=N)N)C(=O)N[C@@H](CC(C)C)C(=O)N[C@@H](CC(C)C)C(=O)N[C@@H](CCCNC(=N)N)C(=O)N[C@@H](CCCCN)C(=O)NCC(N)=O; test system = ATCC 700603; setting = 18 h, 37 °C; quantity = MBC; result = 15 µM (≈ 25.9 µg/mL)
Compound = Cn1c(=O)ccc2ccc(F)c(CCNC[C@H]3CN(c4cnc5c(n4)NC(=O)CO5)C(=O)O3)c21; quantity = MIC90; result = 2 µg/mL (≈ 4.27 µM)
Compound = COc1ccc2c(ccc3oc([N+](=O)[O-])cc32)c1; test = REMA; quantity = MIC90; result = 0.125 µg/mL (≈ 0.514 µM)
Compound = CC[C@H](C)CCCCC(=O)N[C@@H](CCN)C(=O)N[C@H](C(=O)N[C@@H](CCN)C(=O)N[C@H]1CCNC(=O)[C@H]([C@@H](C)O)NC(=O)[C@H](CCN)NC(=O)[C@H](CCN)NC(=O)[C@H](CC(C)C)NC(=O)[C@@H](CC(C)C)NC(=O)[C@H](CCN)NC1=O)[C@@H](C)O; test = EtBr efflux; test system = ATCC 43816 AcrAB expressing; setting = concentration not given, with: glucose, CCCP de-energised; how to read = baseline: untreated; quantity = EtBr fluorescence increase; result = > 2.5 fold
Compound = O=[N+]([O-])c1cc2c(ccc3c4cc([N+](=O)[O-])oc4ccc23)o1; test = REMA; quantity = MIC90; result = 8 µg/mL (≈ 26.8 µM)
Compound = CC[C@H](C)[C@H](NC(=O)[C@H](CC(C)C)NC(=O)[C@H](CCCNC(=N)N)NC(=O)[C@H](CC(C)C)NC(=O)[C@@H](NC(=O)[C@@H](NC(=O)[C@H](CCCNC(=N)N)NC(=O)[C@@H](NC(=O)[C@@H](NC(=O)[C@H](CCCNC(=N)N)NC(=O)[C@H](CCCNC(=N)N)NC(=O)[C@H](CCCNC(=N)N)NC(=O)[C@H](CO)NC(=O)[C@@H](N)CCCNC(=N)N)[C@@H](C)CC)[C@@H](C)CC)[C@@H](C)CC)C(C)C)C(=O)N[C@@H](CCCNC(=N)N)C(=O)N[C@@H](CCCNC(=N)N)C(=O)N[C@@H](CO)C(=O)N[C@@H](C)C(=O)N[C@@H](CCCNC(=N)N)C(N)=O; quantity = MIC range; result = 4 to 8 µM (≈ 9.78 to 19.6 µg/mL)
Compound = C[C@@H](O)[C@H]1C(=O)N2C(C(=O)[O-])=C(SC3Cn4cnc[n+]4C3)[C@H](C)[C@H]12 (stereo partly drawn); test = checkerboard; test system = carbapenem-resistant; setting = concentration not given, with: anionic gold nanoparticle 8 µg/mL; how to read = baseline: MIC alone over combination; quantity = MIC fold reduction; result = > 4 fold
Compound = COc1cc2oc([N+](=O)[O-])cc2c2ccccc12; test = REMA; quantity = MIC90; result = > 32 µg/mL
Compound = NCC[C@H](O)C(=O)N[C@@H]1C[C@H](N)[C@@H](O[C@H]2O[C@H](CN)[C@@H](O)[C@H](O)[C@H]2O)[C@H](O)[C@H]1O[C@H]1O[C@H](CO)[C@@H](O)[C@H](N)[C@H]1O; test = growth inhibition, checkerboard; setting = compound alone; quantity = IC50; result = 31.2 µg/mL
Compound = O=[N+]([O-])c1cc2c(ccc3c2ccc2cc([N+](=O)[O-])oc23)o1; test = REMA; quantity = MIC90; result = > 32 µg/mL
Compound = C[C@H]1[C@H](NC(=O)/C(=N\OC(C)(C)C(=O)O)c2csc(N)n2)C(=O)N1S(=O)(=O)O; test system = ATCC BAA-2146, ESBL and NDM-1 producing, ICR mice, systemic lethal infection; setting = 100 mg/kg; quantity = survival rate; result = 25%

Repeated from above:
Compound = CC[C@H](C)[C@H](NC(=O)[C@H](Cc1c[nH]c2ccccc12)NC(=O)[C@@H](NC(=O)[C@H](Cc1ccc(O)cc1)NC(=O)[C@@H]1CCCN1C(=O)[C@@H](NC(=O)[C@H](C)N)[C@@H](C)CC)[C@@H](C)CC)C(=O)N[C@@H](Cc1ccc(O)cc1)C(=O)N[C@@H](CCCNC(=N)N)C(=O)N[C@@H](CC(C)C)C(=O)N[C@@H](CC(C)C)C(=O)N[C@@H](CCCNC(=N)N)C(=O)N[C@@H](CCCCN)C(=O)NCC(N)=O; test system = ATCC 700603; setting = 18 h, 37 °C; quantity = MBC; result = > 15 µM
